# Results pooled from the literature.
# Lines come from different studies, so protocols differ. ± gives the spread as reported.
SMILES,test,test system,conditions,scale,quantity,value
[11CH3]c1ccc2nc(C3CCC3)n(-c3ccc4[nH]ncc4c3)c2n1,,"human female, thymus",,,absorbed radiation dose,2.9 µSv/MBq
NCCC(=O)N1Cc2ccccc2-c2c(nnn2-c2nc3c(N)ncnc3n2C2OC(CO)C(O)C2O)-c2ccccc21 (mixture of isomers),,methanol,,,brightness,0.27 M⁻¹ cm⁻¹
CC(F)C(=O)NC[C@@H]1O[C@H](C(=O)N[C@@H](CCC(=O)NCCCC[C@@H]2NC(=O)[C@@H](Cc3ccc(O)cc3)NC(=O)[C@H](CC(=O)O)NC(=O)CNC(=O)[C@H](CCCNC(=N)N)NC2=O)C(=O)NCCCC[C@@H]2NC(=O)[C@@H](Cc3ccc(O)cc3)NC(=O)[C@H](CC(=O)O)NC(=O)CNC(=O)[C@H](CCCNC(=N)N)NC2=O)[C@H](O)[C@H](O)[C@H]1O (stereo partly drawn) [fluorine-18 labelled],,"female athymic nude mouse, U-87 MG xenograft, kidney","dose not given, 1 h",,kidney uptake,2.7 ± 0.4 %ID/g
CCCC[C@H](NC(=O)[C@H](CC(C)C)N(C)C(=O)CNC(=O)[C@@H](NC(=O)[C@H](Cc1ccccc1)NC(=O)[C@H](CCCCN)NC(=O)[C@@H](N)CC(=O)O)C(C)C)C(N)=O,,anaesthetized spinalized rat,"IV, 100 µg/kg",relative to: baseline,diastolic pressure decrease,30%
Oc1ccc2ccccc2c1/N=N/c1ccc(/N=N/c2ccccc2)cc1,,rat whole blood extract,"0.2 µg/L, 30 days, -20 °C, long-term storage",,stability deviation,2%
CCCC[C@@H]1NC(=O)[C@@H](NC(=O)[C@H](CCC(=O)O)NC(=O)CNC(=O)CN2CCN(CC(=O)O)CCN(CC(=O)O)CCN(CC(=O)O)CC2)CCCCNC(=O)C[C@@H](C(N)=O)NC(=O)[C@H](C(C)C)NC(=O)[C@@H]2CCCN2C(=O)[C@H](CCCNC(=N)N)NC(=O)CNC(=O)[C@H](Cc2c[nH]c3ccccc23)NC(=O)[C@H](CCCNC(=N)N)NC(=O)[C@@H](Cc2ccccc2)NC(=O)[C@H](Cc2c[nH]cn2)NC(=O)[C@H](CCC(=O)O)NC1=O [gallium-67 labelled],,C57 mice with B16/F1 melanoma,"intravenous, 0.037 MBq/mouse, 4 h",relative to: tumour over liver,tumour to liver ratio,32.5
CC[C@H](C)[C@H](NC(=O)[C@H](CC(C)C)NC(=O)[C@H](Cc1c[nH]c2ccccc12)NC(=O)[C@H](C)NC(=O)[C@@H](NC(=O)[C@H](Cc1ccccc1)NC(=O)[C@H](CC(=O)O)NC(=O)[C@H](CCCNC(=N)N)NC(=O)[C@H](C)NC(=O)[C@H](C)NC(=O)[C@H](CC(C)C)NC(=O)[C@H](C)NC(=O)[C@H](CC(=O)O)NC(=O)[C@H](CC(C)C)NC(=O)[C@@H](NC(=O)[C@@H](NC(=O)[C@H](C)NC(=O)[C@H](CC(C)C)NC(=O)[C@H](CCC(=O)O)NC(=O)[C@H](CO)NC(=O)[C@H](CO)NC(=O)[C@H](Cc1ccccc1)NC(=O)[C@@H](NC(=O)CNC(=O)[C@H](CCC(=O)O)NC(=O)CNC(=O)[C@@H](N)Cc1c[nH]cn1)[C@@H](C)O)[C@@H](C)O)[C@@H](C)CC)[C@@H](C)CC)C(=O)N[C@@H](C)C(=O)N[C@H](C(=O)N[C@@H](CCCCN)C(=O)N[C@H](C(=O)N[C@H](C(=O)N[C@@H](CC(=O)O)C(=O)N[C@@H](CCCCN)C(=O)N[C@@H](CCCCN)C(=O)O)[C@@H](C)O)[C@@H](C)CC)[C@@H](C)O,immunoaffinity LC-MS/MS,"healthy human subjects, plasma","subcutaneous, 5 mg once weekly, day 36 after 6 doses, steady state, geometric mean",,AUClast,6.59 nM·h
Cn1c(=O)oc2ccc(-c3ccc(CC(C#N)NC(=O)C4CNCCCO4)c(F)c3)cc21 (stereo not drawn),measured: blood bilirubin increased,human,"80 mg single dose, fasted",,subjects with TEAE,0%
CN1CCC[C@]1(C)/C=C/S(=O)(=O)NC(=O)Nc1c2c(cc3c1CCC3)CCC2,,"human, plasma","oral, 100 mg twice daily, day 14, tau 12 h, multiple ascending dose",,AUC(0-tau),92900 ng·h/mL
NC12CNCCNCC(NCc3ccc(CNC(=O)CCCC(=O)NCc4ccc(-c5nncnn5)cc4)cc3)(CNCCNC1)CNCCNC2.[64Cu+2],OLINDA dosimetry,bladder wall,"pretargeting, 48 h interval",,absorbed dose,0.0365 rad/mCi
CCCCN1C(=O)c2cccc3c(NCCN4CCOCC4)ccc(c23)C1=O,,aqueous medium,pH 6,,fluorescence brightness,3520 M⁻¹ cm⁻¹
N=C(N)NCCC[C@@H]1NC(=O)[C@H](Cc2c[nH]c3ccccc23)NC(=O)[C@@H](CC2CCCCC2)NC(=O)[C@@H]2CCCN2C(=O)[C@@H](NC(=O)CCc2ccccc2)CCCNC1=O,,"C57BL/6J mice, plasma","oral, 1 mg/kg, two-compartment model",,distribution rate constant k12,< 0.001 h⁻¹
CCc1cc(Nc2nc(-c3ccc(-n4cnc(C)c4)c(F)c3)cs2)c(C)cc1C,,"human, both sexes, plasma","oral, 400 mg, day 1, multiple dose, geometric mean",,terminal elimination rate constant,2.97e-05 s⁻¹
COc1ccc(/N=N/c2ccc(OC[C@@H](O)CNC(C)C)cc2)cc1,UV/Vis spectroscopy,Epac buffer with 0.5 % DMSO,"50 µM, added: 365 nm light, 0.1 mW/mm^2",,trans to cis time constant,3.1 s⁻¹
N#Cc1nc(N2CCOCC2)nc(N(Cc2ccc(F)cc2)CC2CCCNC2)n1 (stereo not drawn),,female CD-1 mice,"intraperitoneal, 10 mg/kg, 4 h",,plasma concentration,65.9 ng/mL
Cc1ccccc1/N=N/c1ccc(/N=N/c2c(O)ccc3ccccc23)c(C)c1,,rat whole blood QC samples,"5.0 µg/L, 4 h, room temperature, short-term stability",,measured concentration,5.04 µg/L
NCCCC(=O)OCC(=O)c1ccc(O)c(OC(F)(F)F)c1.O=C(O)C(F)(F)F,"photolysis, measured: GABA appearance",aqueous HEPES buffer with LiClO4,pH 8.2,,quantum yield,0.02
COc1cc(C)c(Cc2ccc(O)cc2)cc1[C@@H]1S[C@H](CO)[C@@H](O)[C@H](O)[C@H]1O,,"Japanese T2DM patients, urine","1 mg luseogliflozin, day 7, once daily",relative to: dose,urinary excretion 0-24 h,11.1 ± 1.27%
NCC(=O)N1CCC[C@H]1C(=O)N1C[C@H](O)C[C@H]1C(=O)O,potentiometric titration,water,"40 °C, 0.15 mol/dm3 NaCl",,pKa2,2.71
C[C@H](NC(=O)c1ccc2c(c1)C(=O)OC21c2ccc(O)cc2Oc2cc(O)ccc21)C(=O)N[C@@H](CCCCN)C(=O)N[C@@H](C)C(=O)N[C@@H](CCCCN)C(=O)N[C@@H](C)C(=O)N[C@@H](CCCCN)C(=O)N[C@@H](C)C(=O)N[C@@H](CCCCN)C(=O)N[C@@H](C)C(=O)N[C@@H](CCCCN)C(=O)N[C@@H](C)C(=O)N[C@@H](CCCCN)C(=O)N[C@@H](C)C(=O)N[C@@H](CCCCN)C(=O)N[C@@H](C)C(=O)N[C@@H](CC(N)=O)C(=O)N[C@@H](C)C(=O)N[C@@H](CC(N)=O)C(=O)N[C@@H](C)C(=O)N[C@@H](CC(N)=O)C(=O)O,,bovine cartilage,+N over +F variant,,ratio of steady-state partition coefficient,1.17
CC12CC(c3ccc(S(C)(=O)=O)cc3)C3=C4CCC(=O)C=C4CCC3C1CCC2(O)C(F)(F)C(F)(F)F (stereo not drawn),,"human, plasma","intravenous, 15.7 µg, [14C] microtracer, geometric mean",,terminal half-life,42.4 h
Cc1ccc(OCC(=O)O)cc1,,"Sprague-Dawley rat, female, plasma","oral gavage, 100 mg/kg of parent drug",,Tmax,2 h
[123I]c1ccc2nc(-c3ccc(-n4ccnn4)nc3)cn2c1,,"male Wistar rat, brain","intravenous, 4 MBq, 5 min",,tracer uptake,0.788 %ID/g
CCCC(CCC)NC(=O)c1ccc(OC2OC(C(=O)O)C(O)C(O)C2O)c(OC)c1 (stereo not drawn),,"male Sprague-Dawley rats, plasma","oral, 50 mg/kg of parent drug",relative to: 50 over 20 mg/kg dose,Cmax ratio,2.1
CC(C)N(P(c1ccccc1)c1ccccc1)P(c1ccccc1)c1ccccc1.Cc1ccc(C(C)C)cc1.F[B-](F)(F)F.[Cl][Ru+],measured: ruthenium,BALB/c nude mice,"ip, 5 mg/kg, 12 h",,serum concentration,28.4 ± 10.7 ng/mL
NCCCC(=O)OCC(=O)c1c(F)cc(O)cc1F.O=C(O)C(F)(F)F,"photolysis, measured: rearranged acid appearance",unbuffered water,,,quantum yield,0.15
Cc1ccc(/N=N/c2c(O)ccc3ccccc23)c(C)c1,,rat whole blood,"16.0 µg/L, 30 days, -20 °C, long-term storage",,stability deviation,0.4%
C=CCc1ccc(O)c(-c2cc(CC=C)ccc2OCCCCCCCCCC[P+](c2ccccc2)(c2ccccc2)c2ccccc2)c1,,"C57BL/6 mouse, non-tumour-bearing, serum","dose not given, day 31",,total protein level,4.7 ± 0.3 g/dL
NC[C@@H](C(=O)Nc1ccc(-c2cn[nH]c2)cc1)c1ccccc1,OECD 405 eye irritation,"New Zealand White rabbit, eye","topical, 0.1%, 97 h (day 5), scale 0 to 3",direction not given,conjunctival redness score,1
CC(C)[C@H](NC(=O)[C@@H]1CCCN1C(=O)[C@H](CCCNC(=N)N)NC(=O)[C@H](CS)NC(=O)[C@H](Cc1c[nH]c2ccccc12)NC(=O)[C@H](CCCNC(=N)N)NC(=O)[C@@H](Cc1ccccc1)NC(=O)[C@H](Cc1c[nH]cn1)NC(=O)[C@H](CCC(=O)O)NC(=O)[C@H](CS)NC(=O)[C@H](CS)NC(=O)CNC(=O)[C@@H]1CC(=O)N[C@@H](CCCNC(=N)N)C(=O)NCC(=O)N[C@@H](CC(=O)O)C(=O)N[C@H](Cc2ccc(O)cc2)C(=O)N1)C(N)=O [technetium-99m labelled],,"C57 mouse, female, B16/F1 melanoma","intravenous, 0.037 MBq, 24 h",relative to: tumour over muscle,tumour to tissue ratio,18.5
CN(C)c1ccc(-c2nc3ccc(OCCCCCN4CCN5CCN(CC4)CC(=O)[O][Al]([18F])[O]C(=O)C5)cc3s2)cc1,,ICR mouse,"intravenous, dose not given, 60 min",,stomach uptake,3.83 ± 1.39 % injected dose/organ
NCCCC(=O)OCC(=O)c1ccc(O)c(F)c1F.O=C(O)C(F)(F)F,"photolysis, measured: GABA appearance",aqueous HEPES buffer with LiClO4,pH 7.3,,quantum yield,0.11
Cc1ccc(-c2ccc(-c3cc4sccc4o3)cn2)nc1,,aqueous HEPES buffer,"pH 7.4, zinc-free ligand, added: quinine bisulfate reference",,fluorescence quantum yield,0.54
CC(C)[C@H](NC(=O)CNC(=O)[C@H](CCC(N)=O)NC(=O)[C@H](C)N)C(=O)O,LC-MS/MS,"human, male, plasma","intravenous, 10 mg/kg three times daily, day 2, first dose, 10 min infusion, geometric mean",,half-life,3.6 min
CC(C)(O)c1ncc([S@](N)(=O)=NC(=O)Nc2c3c(cc4c2CCC4)CCC3)s1,,"healthy human, fed","oral, 25 mg twice daily, day 14, tablet formulation, geometric mean",,AUC(0-tau),27100 ng·h/mL
COc1ccc(/C=C/c2ccc(-c3ccc(C)cn3)nc2)cc1,TCSPC,CHCl3,,,fluorescence lifetime,0.7 ns

# Repeated from above:
SMILES,test,test system,conditions,scale,quantity,value
CN(C)c1ccc(-c2nc3ccc(OCCCCCN4CCN5CCN(CC4)CC(=O)[O][Al]([18F])[O]C(=O)C5)cc3s2)cc1,,ICR mouse,"intravenous, dose not given, 60 min",,stomach uptake,3.83 ± 1.39 % injected dose/organ
NCCCC(=O)OCC(=O)c1ccc(O)c(F)c1F.O=C(O)C(F)(F)F,"photolysis, measured: GABA appearance",aqueous HEPES buffer with LiClO4,pH 7.3,,quantum yield,0.11
Cc1ccc(-c2ccc(-c3cc4sccc4o3)cn2)nc1,,aqueous HEPES buffer,"pH 7.4, zinc-free ligand, added: quinine bisulfate reference",,fluorescence quantum yield,0.54
CC(C)[C@H](NC(=O)CNC(=O)[C@H](CCC(N)=O)NC(=O)[C@H](C)N)C(=O)O,LC-MS/MS,"human, male, plasma","intravenous, 10 mg/kg three times daily, day 2, first dose, 10 min infusion, geometric mean",,half-life,3.6 min
